Measurements of several laboratories.
Lines come from different studies, so protocols differ.
Sequence of UniProt Q9BVS4 (whole entry, looked up): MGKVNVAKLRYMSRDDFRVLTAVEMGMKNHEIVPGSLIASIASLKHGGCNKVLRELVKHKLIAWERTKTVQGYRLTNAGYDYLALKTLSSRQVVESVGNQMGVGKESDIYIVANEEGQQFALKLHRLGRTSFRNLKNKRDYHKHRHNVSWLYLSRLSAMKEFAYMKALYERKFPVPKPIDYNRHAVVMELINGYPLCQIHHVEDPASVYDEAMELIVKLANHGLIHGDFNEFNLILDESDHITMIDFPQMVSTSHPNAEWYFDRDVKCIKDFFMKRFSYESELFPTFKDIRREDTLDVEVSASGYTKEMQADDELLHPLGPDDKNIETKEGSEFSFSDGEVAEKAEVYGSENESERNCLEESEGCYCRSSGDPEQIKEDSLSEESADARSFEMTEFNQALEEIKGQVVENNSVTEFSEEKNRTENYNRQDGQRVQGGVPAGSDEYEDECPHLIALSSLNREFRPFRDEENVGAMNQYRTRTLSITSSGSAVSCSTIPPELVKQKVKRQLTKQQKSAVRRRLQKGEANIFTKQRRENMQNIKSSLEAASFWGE
Sequence of UniProt Q9BYT3 (whole entry, looked up): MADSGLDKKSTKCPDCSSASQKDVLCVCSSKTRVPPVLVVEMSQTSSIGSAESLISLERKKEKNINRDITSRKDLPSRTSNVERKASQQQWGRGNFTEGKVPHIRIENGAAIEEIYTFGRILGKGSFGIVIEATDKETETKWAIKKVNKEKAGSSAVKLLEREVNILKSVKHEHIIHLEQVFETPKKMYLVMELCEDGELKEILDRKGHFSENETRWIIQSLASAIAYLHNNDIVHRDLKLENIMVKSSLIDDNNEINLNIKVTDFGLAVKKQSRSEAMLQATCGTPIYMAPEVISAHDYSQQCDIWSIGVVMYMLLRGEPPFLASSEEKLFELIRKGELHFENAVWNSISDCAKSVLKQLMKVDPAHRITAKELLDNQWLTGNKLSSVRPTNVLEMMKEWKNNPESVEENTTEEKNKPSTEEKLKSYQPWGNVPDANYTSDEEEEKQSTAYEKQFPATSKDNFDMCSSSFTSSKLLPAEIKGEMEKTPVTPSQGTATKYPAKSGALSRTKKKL
Sequence of UniProt Q13554 (whole entry, looked up): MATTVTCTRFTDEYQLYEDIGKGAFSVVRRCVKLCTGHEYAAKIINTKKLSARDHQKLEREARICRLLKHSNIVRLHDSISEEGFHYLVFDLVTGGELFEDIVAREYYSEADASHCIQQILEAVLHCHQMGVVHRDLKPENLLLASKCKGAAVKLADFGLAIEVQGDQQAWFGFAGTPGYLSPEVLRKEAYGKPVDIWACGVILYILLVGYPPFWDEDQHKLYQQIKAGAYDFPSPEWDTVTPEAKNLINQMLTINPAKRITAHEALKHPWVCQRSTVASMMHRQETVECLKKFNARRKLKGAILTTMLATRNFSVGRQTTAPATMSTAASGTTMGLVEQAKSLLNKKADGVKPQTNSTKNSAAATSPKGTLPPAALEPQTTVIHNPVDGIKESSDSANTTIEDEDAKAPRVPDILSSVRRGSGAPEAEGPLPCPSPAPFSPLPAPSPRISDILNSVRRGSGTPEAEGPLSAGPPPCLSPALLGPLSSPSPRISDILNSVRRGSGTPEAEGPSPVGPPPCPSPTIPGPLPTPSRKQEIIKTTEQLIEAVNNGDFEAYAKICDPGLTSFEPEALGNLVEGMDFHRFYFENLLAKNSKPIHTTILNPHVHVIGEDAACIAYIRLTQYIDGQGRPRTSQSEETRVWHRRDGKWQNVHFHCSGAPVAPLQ

Structure (SMILES) = C[C@@H]1CC[C@@H]([C@](O)(CNCc2ccc(F)cc2)COCc2ccc(F)cc2)[C@H](OCc2ccc(F)cc2)C1; tested on = A2780; test = cell growth or viability, MTT; setting = 10 µM, 72 h; measurement = inhibition; value = 93.8%
Structure (SMILES) = CNc1ncc2c(/C=C/C(=O)N3CCC(c4ccccc4)CC3)nn(CC3CCCC3)c2n1; tested on = FLO-1; test = cell growth or viability, resazurin; setting = 5 days; measurement = EC50; value = > 30 µM
Structure (SMILES) = CCCCC(=O)Nc1ccc(-c2ccc3ncn(CCC)c(=O)c3c2)cn1; tested on = CAMK2B (Homo sapiens, UniProt Q13554); test = binding, competition with immobilised ligand; setting = 0.5 µM; measurement = remaining binding; value = 100%
Structure (SMILES) = CCOc1ccc2c(C)c(CC)c(=O)oc2c1C; tested on = PC-3; test = cell growth or viability, MTT; setting = 1000 µg/mL; measurement = viability; value = 2.42%
Structure (SMILES) = CNCc1ccc(-c2nn(Cc3ccccc3)c3ccccc23)o1; tested on = RBE; test = cell growth or viability, ATP luminescence; setting = 46 µM, 72 h; measurement = inhibition; value = 84%
Structure (SMILES) = Cc1cc([C@@H](C)Nc2ccccc2C(=O)O)c2nc(N3CCC(F)(F)CC3)c(C#N)c(=O)n2c1; tested on = PIM3 (Homo sapiens, UniProt Q86V86); test = binding, competition with immobilised ligand; setting = 1 µM; measurement = remaining binding; value = 100%
Structure (SMILES) = CC(=NNC(N)=S)c1ccc(Nc2nnc(-c3ccc(Cl)cc3)c3ccccc23)cc1; tested on = MCF7; test = cell growth or viability, MTT; setting = 2.5 µM; measurement = cell death; value = 90.9%
Structure (SMILES) = CNc1ncc2c(/C=C/C(=O)N3CCCCC3)nn(CC3CCCC3)c2n1; tested on = FLO-1; test = cell growth or viability, resazurin; setting = 5 days; measurement = EC50; value = 9.97 µM
Structure (SMILES) = CCNC(=S)NNC(=O)COc1ccc2c(C)c(CC)c(=O)oc2c1C; tested on = PC-3; test = cell growth or viability, MTT; setting = 250 µg/mL; measurement = viability; value = 11.7%
Structure (SMILES) = CC(=NNC(=O)c1ccncc1)c1ccc(Nc2nnc(-c3ccc(Cl)cc3)c3ccccc23)cc1; tested on = MCF7; test = cell growth or viability, MTT; setting = 1.25 µM; measurement = cell death; value = 95.4%
Structure (SMILES) = CNc1ncc2c(/C=C/C(=O)N3CCOCC3)nn(CC3CCCC3)c2n1; tested on = FLO-1; test = cell growth or viability, resazurin; setting = 5 days; measurement = EC50; value = > 30 µM
Structure (SMILES) = CCc1c(C)c2ccc(OCC(=O)NNC(=S)Nc3ccccc3)c(C)c2oc1=O; tested on = PC-3; test = cell growth or viability, MTT; setting = 62.5 µg/mL; measurement = viability; value = 17.9%
Structure (SMILES) = CNc1ncc2c(/C=C/C(=O)N3CCC(OC)CC3)nn(CC(OC)OC)c2n1; tested on = FLO-1; test = cell growth or viability, resazurin; setting = 5 days; measurement = EC50; value = > 30 µM
Structure (SMILES) = Cc1cccc(N(O)N=Nc2ccc(S(=O)(=O)Nc3nccs3)cc2)c1; test = ABTS scavenging; setting = 300 µg/mL; measurement = inhibition; value = 96.4%
Structure (SMILES) = Cc1cc(=O)c(-c2ccc(Oc3cccc(C(F)(F)F)c3)cc2)c(C)[nH]1; tested on = HEK293; test = cell growth or viability; measurement = IC50; value = > 10 µM
Structure (SMILES) = C[C@@H]1CC[C@@H]([C@@](C)(O)Cn2cnc3ccccc32)[C@H](OCc2ccccc2)C1; tested on = A2780; test = cell growth or viability, MTT; setting = 30 µM, 72 h; measurement = inhibition; value = 99.2%
Structure (SMILES) = CCc1c(C)c2ccc(OCC(=O)NN=Cc3ccc([N+](=O)[O-])cc3)cc2oc1=O; tested on = PC-3; test = cell growth or viability, MTT; setting = 125 µg/mL; measurement = viability; value = 10.4%
Structure (SMILES) = COc1cc(-c2cncc3c2CN(C)Cc2cc(N4CCNCC4)ccc2-3)cc(OC)c1OC; tested on = STK33 (Homo sapiens, UniProt Q9BYT3); test = enzyme activity, inhibitor; setting = 1 µM; measurement = remaining activity; value = 111%
Structure (SMILES) = Nc1ncnc2c1c(/C=C/C(=O)N1CCOCC1)nn2CC1CCCC1; tested on = FLO-1; test = cell growth or viability, resazurin; setting = 5 days; measurement = EC50; value = > 30 µM
Structure (SMILES) = Cc1c(Cc2ccccc2)c(=O)oc2c(C)c(OCC(=O)NN=Cc3ccco3)ccc12; tested on = PC-3; test = cell growth or viability, MTT; setting = 31.25 µg/mL; measurement = viability; value = 27%
Structure (SMILES) = Cc1[nH]c(C)c(-c2ccc(OCc3cc(F)cc(F)c3)nc2)c(=O)c1Br; tested on = HEK293; test = cell growth or viability; measurement = IC50; value = > 10 µM
Structure (SMILES) = OCc1ccc(-c2nn(Cc3cccnc3)c3cccnc23)o1; tested on = RBE; test = cell growth or viability, ATP luminescence; setting = 46 µM, 72 h; measurement = inhibition; value = 80%
Structure (SMILES) = Cc1cccc(-c2nn3c(c2-c2ccnc4ccc(C(N)=O)cc24)CCC3)n1; tested on = MB002; test = cell growth or viability; setting = 7 days; measurement = IC50; value = > 10 µM
Structure (SMILES) = C[C@@H]1CC[C@@H]([C@](O)(CNCc2cccc3ccccc23)COCc2ccccc2)[C@H](OCc2ccccc2)C1; tested on = HeLa; test = cell growth or viability, MTT; setting = 30 µM, 72 h; measurement = inhibition; value = 97.3%
Structure (SMILES) = OCc1ccc(-c2nn(Cc3ccncc3)c3ccccc23)o1; tested on = RBE; test = cell growth or viability, ATP luminescence; setting = 46 µM, 72 h; measurement = inhibition; value = 57%
Structure (SMILES) = C[C@@H]1CC[C@@H]([C@@](O)(CNCc2ccccc2)COCc2ccc(F)cc2)[C@H](OCc2ccc(F)cc2)C1; tested on = A2780; test = cell growth or viability, MTT; setting = 10 µM, 72 h; measurement = inhibition; value = 95.6%
Structure (SMILES) = Cc1c(Cc2ccccc2)c(=O)oc2c(C)c(OCC(=O)NN=Cc3ccccc3)ccc12; tested on = PC-3; test = cell growth or viability, MTT; setting = 1000 µg/mL; measurement = viability; value = 7.28%
Structure (SMILES) = O=C(Nc1ccc(Oc2nnc(-c3ccc(Cl)cc3)c3ccccc23)cc1)c1cccc([N+](=O)[O-])c1; tested on = MCF7; test = cell growth or viability, MTT; setting = 0.156 µM; measurement = cell death; value = 61.6%
Structure (SMILES) = C=CC(=O)N1CCC(COCC(=O)N2CCN(c3nc(-c4cnc(N)nc4C(F)F)nc(N4CCOC[C@@H]4C)n3)CC2)CC1; tested on = RIOK2 (Homo sapiens, UniProt Q9BVS4); test = binding, competition with immobilised ligand; setting = 1 µM; measurement = remaining binding; value = 100%
Structure (SMILES) = Cc1n[nH]c2ccc3nc(-c4ccc(C(=O)NCCN(C)C)cc4)c4c(c3c12)CCCCC4; tested on = Kasumi 1; test = cell growth or viability; setting = 72 h; measurement = GI50; value = 0.254 µM
Structure (SMILES) = COc1cccc2c(NN=Cc3cccc(F)c3)ccnc12; tested on = HEK293; test = cell growth or viability; measurement = IC50; value = > 10 µM
Structure (SMILES) = COc1ccc2c(c1)[C@]1(C[C@H]1c1ccc3c(/C=C/c4ccc(CN5C[C@@H](C)O[C@@H](C)C5)cc4)n[nH]c3c1)C(=O)N2; tested on = MB002; test = cell growth or viability; setting = 7 days; measurement = IC50; value = 0.0042 µM
Structure (SMILES) = Cc1[nH]c(C)c(-c2ccc(S(=O)(=O)c3ccc(Cl)cc3)cc2)c(=O)c1Cl; tested on = HEK293; test = cell growth or viability; measurement = IC50; value = > 10 µM
Structure (SMILES) = CCC(=CCc1c(O)cc2c(c1O)C(=O)C[C@@H](c1ccccc1O)O2)CC; tested on = HeLa; test = cell growth or viability, MTT; setting = 0.938 µM, 48 h; measurement = inhibition; value = -6.75%
Structure (SMILES) = Cc1[nH]c(C)c(-c2ccc(-c3ccc(OC(F)(F)F)cc3)nc2)c(=O)c1Cl; tested on = HEK293; test = cell growth or viability; measurement = IC50; value = > 10 µM
Structure (SMILES) = COc1ccc(CNC[C@](O)(COCc2ccc(F)cc2)[C@@H]2CC[C@@H](C)C[C@H]2OCc2ccc(F)cc2)cc1; tested on = A2780; test = cell growth or viability, MTT; setting = 30 µM, 72 h; measurement = inhibition; value = 95.4%
Structure (SMILES) = Nc1ncnc2c1c(/C=C/C(=O)N1CCC(CCO)CC1)nn2CC1CCCC1; tested on = FLO-1; test = cell growth or viability, resazurin; setting = 5 days; measurement = EC50; value = > 30 µM
Structure (SMILES) = Cc1ccc(C(CS(=O)(=O)c2ccccc2)=NNc2nc(C)c(N=Nc3cccc(C)c3)s2)cc1; tested on = WM 266-4; test = cell growth or viability, MTT; setting = 0.4 µM, 48 h; measurement = viability; value = 60.9%
Structure (SMILES) = COc1ccccc1CNC[C@@](C)(O)[C@@H]1CC[C@@H](C)C[C@H]1OCc1ccccc1; tested on = HeLa; test = cell growth or viability, MTT; setting = 10 µM, 72 h; measurement = inhibition; value = 81.8%
Structure (SMILES) = COc1ccc(C=CC(=O)NC(=O)c2ccccc2OC(=O)c2ccccc2)cc1OC; tested on = HEK293; test = cell growth or viability; measurement = IC50; value = > 10 µM
Structure (SMILES) = CC(=NNC(=O)c1ccccc1)c1ccc(Nc2nnc(-c3ccc(Cl)cc3)c3ccccc23)cc1; tested on = MCF7; test = cell growth or viability, MTT; setting = 1.25 µM; measurement = cell death; value = 49.2%
Structure (SMILES) = Cc1ccc(C(CS(=O)(=O)c2ccccc2)=NN=C2N=C(c3ccc(Br)cc3)CS2)cc1; tested on = WM 266-4; test = cell growth or viability, MTT; setting = 6.3 µM, 48 h; measurement = viability; value = 48.3%
Structure (SMILES) = Cn1nnc2c(C(N)=O)ncn2c1=O; tested on = MB002; test = cell growth or viability; setting = 7 days; measurement = IC50; value = > 10 µM
Structure (SMILES) = CN(O)N=Nc1ccc(S(=O)(=O)Nc2nccs2)cc1; test = ABTS scavenging; setting = 300 µg/mL; measurement = inhibition; value = 95.8%
Structure (SMILES) = C=CCOc1ccc2c(C)c(CC)c(=O)oc2c1C; tested on = PC-3; test = cell growth or viability, MTT; setting = 1000 µg/mL; measurement = viability; value = 6.94%
Structure (SMILES) = OCc1ccc(-c2cn(Cc3ccccc3)c3ccccc23)o1; tested on = RBE; test = cell growth or viability, ATP luminescence; setting = 46 µM, 72 h; measurement = inhibition; value = 85%
Structure (SMILES) = CC(=NNC(=O)c1ccccc1Br)c1ccc(Nc2nnc(-c3ccc(Cl)cc3)c3ccccc23)cc1; tested on = MCF7; test = cell growth or viability, MTT; setting = 1.25 µM; measurement = cell death; value = 68.7%

For quick reference, copied from above:
Structure (SMILES) = CCNC(=S)NNC(=O)COc1ccc2c(C)c(CC)c(=O)oc2c1C; tested on = PC-3; test = cell growth or viability, MTT; setting = 250 µg/mL; measurement = viability; value = 11.7%
Structure (SMILES) = Cc1cc(=O)c(-c2ccc(Oc3cccc(C(F)(F)F)c3)cc2)c(C)[nH]1; tested on = HEK293; test = cell growth or viability; measurement = IC50; value = > 10 µM
Structure (SMILES) = COc1cc(-c2cncc3c2CN(C)Cc2cc(N4CCNCC4)ccc2-3)cc(OC)c1OC; tested on = STK33 (Homo sapiens, UniProt Q9BYT3); test = enzyme activity, inhibitor; setting = 1 µM; measurement = remaining activity; value = 111%
Structure (SMILES) = CCCCC(=O)Nc1ccc(-c2ccc3ncn(CCC)c(=O)c3c2)cn1; tested on = CAMK2B (Homo sapiens, UniProt Q13554); test = binding, competition with immobilised ligand; setting = 0.5 µM; measurement = remaining binding; value = 100%
